Measured values gathered from unrelated publications.
A part holds a random share of what one study measured. Positions count from the first letter of the parent shown.

Study 1 — technique: protein-binding microarray; form: double-stranded DNA, one strand shown; medium: in vitro; tested at: 250 nM; setting: 60-bp whole probe; with: salmon DNA 0.4 mg/ml; baseline: random background probes; reading: higher = stronger binding; constant ends, left off below: GCCTAGCAC … GTCTTGATTCGCTTGACGCTGCTG
Target: Interferon regulatory factor 5, full length, phosphomimetic (IRF5, Homo sapiens, UniProt Q13568-2, residues 1-514, K96S/S451D/S453D/S456D/S462D)
Oligonucleotide | log fluorescence
CCTTGTACGTCGTTTCCCAAGGTGCTA | 0.0203 z-score
CAGCTTCTAATATTCATTTTGTGCTAG | 0.712 z-score
TTAGATTTCAGTTCGGATTAGTGCTAG | 1.71 z-score
GACGGACTGCTGCTGCTGACGTGCTAG | -0.811 z-score
TTAGGACAGGACACTGGGTTAGTGCTA | -0.303 z-score
TCATCTCCATTTTTCTAACTGTGCTAG | 0.916 z-score
TTCTATATTTGCTTCAGGTTGTGCTAG | 0.742 z-score
TTAGGTCTCCTAATCCTTTAGTGCTAG | -0.289 z-score
GACGGTATCCTTTTCATGACGTGCTAG | 0.419 z-score
TTAGATATCAGATTGGATTAGTGCTAG | 0.564 z-score
GACGATTCCGGGTATCGAGACGTGCTA | 1.09 z-score
GACGGACTGGTTTTCGGGACGTGCTAG | 1.06 z-score
TTAGATCACAGACTGGATTAGTGCTAG | -0.369 z-score
TTAGGTCTCGTTTTCGGTTAGTGCTAG | 7.33 z-score
GCCGGTATCCTTCTCCTGACGTGCTAG | 0.314 z-score
TCATCTCCCAGACTGGAACTGTGCTAG | -0.169 z-score
TCAGTTTCTGGTTTATTACTGTGCTAG | 4.8 z-score
TCAGGACTGGGGTATCGGTTAGTGCTA | 2.1 z-score
TCATTTCTCTGCTACCCTACTGTGCTA | 1.03 z-score
GACGGAATCCTTTTCCTGACGTGCTAG | -0.094 z-score
CTCGGTTTCCAAATTGTCTCGTGCTAG | 0.72 z-score
TTAGGACTGGACAATCGGTTAGTGCTA | 0.488 z-score
ACTGAAATCACCCTTGGAAGTGTGCTA | 0.808 z-score

Study 2 — target: CCNB3, cyclin fold, Cln2 fusion (human); technique: yeast growth competition, sequencing; medium: yeast; setting: weak parent motif; baseline: not given; reading: higher = stronger binding
Starting sequence: WEE2 docking peptide (human); KELRQKLNFSYCE; partner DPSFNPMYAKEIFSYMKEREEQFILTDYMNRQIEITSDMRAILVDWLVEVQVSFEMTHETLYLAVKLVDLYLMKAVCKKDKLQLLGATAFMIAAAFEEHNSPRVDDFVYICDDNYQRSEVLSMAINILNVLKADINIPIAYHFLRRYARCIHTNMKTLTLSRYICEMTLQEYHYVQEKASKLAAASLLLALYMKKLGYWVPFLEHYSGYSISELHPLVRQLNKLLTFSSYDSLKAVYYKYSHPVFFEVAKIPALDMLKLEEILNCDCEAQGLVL
Substitution | normalised enrichment score
KELRQKLNFAYCE [S10A] | 0.211
KELRQKLNFSACE [Y11A] | -0.0485
KELRQKANFSYCE [L7A] | -0.0647
KELAQKLNFSYCE [R4A] | -0.112
KELRQKLAFSYCE [N8A] | 0.338
AELRQKLNFSYCE [K1A] | -0.157
KELRQKLNFSYAE [C12A] | -0.292

Study 3 — technique: protein binding microarray; form: double-stranded DNA, one strand shown; medium: in vitro; tested at: not given; baseline: not given; reading: higher = stronger binding
Target: Histone acetyltransferase KAT6A, winged helix 1, GST fusion (KAT6A, Homo sapiens, UniProt Q92794, residues 1-85)
Setting: 8-mer, flanks averaged, mean of 2 arrays, mostly near background
Residues (chain): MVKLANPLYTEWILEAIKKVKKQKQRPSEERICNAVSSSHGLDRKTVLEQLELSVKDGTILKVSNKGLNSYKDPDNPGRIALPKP
Oligonucleotide | E-score
AGTAACAG | -0.0372
CTTTCCAC | -0.0235
AAAGGTGA | -0.0888
GGAATCCA | -0.0911
AGGAATGA | -0.111
AAGACCGC | 0.217
GCACTTCC | 0.0375
GGTAGGAA | -0.142
ACAACTTG | -0.197
TCGCGCCA | 0.234
AGGGCTCA | -0.145
AGACCGCG | 0.345
ATTGGAGG | -0.141
AGCCTCCA | -0.0816
ATCCAAAC | -0.198
GAAATTCC | -0.036
AGAAGCAA | -0.211
TAATTTAA | -0.0837
GGGGGCAC | -0.0997
CCTGCGGA | 0.00339
AGGCTAGC | -0.103
AAGCTTTA | -0.129
GCGATCCA | 0.0313
ATGGAAGG | -0.0987
CGAACCGC | 0.332

Study 4 — technique: RNA Bind-n-Seq; form: RNA; medium: in vitro; tested at: 100 nM; setting: RNA with constant flanks, ends assumed; baseline: input RNA pool; reading: higher = stronger binding
Target: RING finger protein unkempt homolog, zinc fingers 1-6, SBP tag (UNK, Homo sapiens, UniProt Q9C0B0, residues 30-357)
UniProt Q9C0B0, sequence (30-357, looked up): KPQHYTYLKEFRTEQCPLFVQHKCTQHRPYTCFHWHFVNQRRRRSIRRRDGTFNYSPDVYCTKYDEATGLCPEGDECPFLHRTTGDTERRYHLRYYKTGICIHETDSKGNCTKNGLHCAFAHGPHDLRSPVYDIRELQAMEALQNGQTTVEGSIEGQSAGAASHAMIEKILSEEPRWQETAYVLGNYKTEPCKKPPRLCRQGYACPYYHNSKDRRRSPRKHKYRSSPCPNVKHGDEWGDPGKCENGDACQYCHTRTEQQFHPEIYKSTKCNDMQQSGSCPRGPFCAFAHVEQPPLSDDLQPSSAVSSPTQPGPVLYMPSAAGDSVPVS
Oligonucleotide | bound/input enrichment [ratio]
GGGAGUUCUACAGUCCGACGAUCAUCCCUCAGUGACAGUAUGCCUUCUGCCGCAGAUUCUCACUCCCGUCAUUUUUCUGAAUUCCGUUGUUCUGACCCCGAAAGCAUGAAAACUUCUUGCCGUCAUGGUUCCAGUGAUUAUCACAACAGAGGAUUGAGCAUCA | 0.288
GGGAGUUCUACAGUCCGACGAUCAUUGAACAAAAAUGUUUCCACUGGCUUUUGCCUGUAAGAAAAAAAAUGUACCCGAGCACACCGAGCUUUUUAACCGCACUAACCAAUGCCUUUUCCGAUGUAUUUUUGAUGUAUAUAUCUCAACAGAGGAUUGAGCAUCA | 0.416
GGGAGUUCUACAGUCCGACGAUCUUACAGUCAUUGAUGGACUCUAUUUUUUUAUUAUUACUUGGACCUUGGUCGUUUUUAUACCCGCAAAAUGUCUUGUUUUAAUUUGUGUUUUUUGGGGGGAGGGAGGGAGUGAACUUGCUGCAACAGAGGAUUGAGCAUCA | 1.3

Study 5 — technique: RNA Bind-n-Seq; form: RNA; medium: in vitro; tested at: 200 nM; setting: whole 134-nt RNA, ends assumed; with: 150 mM KCl; baseline: input library; reading: higher = stronger binding
Target: Ras GTPase-activating protein-binding protein 1, full length (G3BP1, Homo sapiens, UniProt Q13283)
UniProt Q13283, sequence (whole entry, looked up): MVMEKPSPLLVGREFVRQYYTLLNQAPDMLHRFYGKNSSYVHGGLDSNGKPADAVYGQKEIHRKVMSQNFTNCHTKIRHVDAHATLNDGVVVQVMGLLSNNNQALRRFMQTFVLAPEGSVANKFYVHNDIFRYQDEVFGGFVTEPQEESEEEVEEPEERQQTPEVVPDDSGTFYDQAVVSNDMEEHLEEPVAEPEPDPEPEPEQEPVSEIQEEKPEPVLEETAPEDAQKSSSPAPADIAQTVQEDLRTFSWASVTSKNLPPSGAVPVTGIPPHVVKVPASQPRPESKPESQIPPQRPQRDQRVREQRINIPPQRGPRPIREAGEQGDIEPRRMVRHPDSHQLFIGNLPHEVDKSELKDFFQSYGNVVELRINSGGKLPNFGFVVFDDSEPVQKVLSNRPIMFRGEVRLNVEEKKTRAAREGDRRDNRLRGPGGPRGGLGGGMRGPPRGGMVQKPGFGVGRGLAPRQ
Constant ends, left off below: GGGAGUUCUACAGUCCGACGAUC … UGGAAUUCUCGGGUGUCAAGG
Oligonucleotide | log2 enrichment
UCCUCAAGUCCUGUGCUACACAUCGUAUGUACCGAAUCGGUGGUGGGGUGGAAAGUAUUAUGUUACGCCGUUCGGAUCUGCACUUCCAGC | -0.247
UGGCCCUGGUGGCAUGCGGGGAGGAAGAGGUGGCCUCAUGGAUCGUGGUGGUCCCGGUGGAGUGUUCAGAGGUGGCCGUGGUGGAGACAG | 0.289
UCCUGUGCUACACAUCGUAUGUACCGAAUCGGGAAAAAAGGAAAAAAGGGAAAAAAGGGAAAGUAUUAUGUUACGCCGUUCGGAUCUGCA | -0.461
CACACACAACACGCACCCACACAGACACAGAGGGAAGGGGUUGGGAUGGGGACAGGGUGCACAGCAGGGCGGGGUAGGACCCCAGCCCCU | 1.59
ACCAAGCAGGUGGGCAUCUUUGGGAAGUGGGGCAAGGGGGGGAUAGGGAGGGGGGUAACACUUUGGGAACAGGUGGUCCCAGGUCGUUUC | 1.26
AGUCCUGUGCUACACAUCGUAUGUACCGAAUCGGGAAAGGGAAAAAGGGAAAAAGGGAAAGUAUUAUGUUACGCCGUUCGGAUCUGCACU | -0.303
CCUCAAGUCCUGUGCUACACAUCGUAUGUACCGAAUCGGGGUGGUGGGGUGGGAAAGUAUUAUGUUACGCCGUUCGGAUCUGCACUUCCA | 0.612
CCUCAAGUCCUGUGCUACACAUCGUAUGUACCGAAUCGGAAGGGAAGGAAGGAAAGUAUUAUGUUACGCCGUUCGGAUCUGCACUUCCAG | -0.172
UCCUGUGCUACACAUCGUAUGUACCGAAUCGGGUUUUUUGGUUUUUUGGUUUUUUGGGGAAAGUAUUAUGUUACGCCGUUCGGAUCUGCA | -0.826
GUCCUGUGCUACACAUCGUAUGUACCGAAUCGGGAAAAAGGGGAAAAAGGAAAAAGGGGAAAGUAUUAUGUUACGCCGUUCGGAUCUGCA | -0.283
UGGCCCUGGUGGCAUGCGGGGAGGAAGAGGUGGCCUCAUGGAUCGUGGUGGUCCCGGUGGAAUGUUCAGAGGUGGCCGUGGUGGAGACUG | 0.182
CAAGUCCUGUGCUACACAUCGUAUGUACCGAAUCGGGGCCCGGCCCGGGGCCCGGGAAAGUAUUAUGUUACGCCGUUCGGAUCUGCACUU | -0.902
UCCUGUGCUACACAUCGUAUGUACCGAAUCGGGGUUUGGGGUUUGGGGAAAAAAAGGGGAAAGUAUUAUGUUACGCCGUUCGGAUCUGCA | 0.517
AAGUCCUGUGCUACACAUCGUAUGUACCGAAUCGGGCCCGGGGCCCGGGGCCCGGGGAAAGUAUUAUGUUACGCCGUUCGGAUCUGCACU | -0.991

Study 6 — technique: universal PBM; form: double-stranded DNA, one strand shown; medium: in vitro; tested at: 600 nM; reading: higher = stronger binding
Target: Sal-like protein 4, full length isoform A (SALL4, Homo sapiens, UniProt Q9UJQ4, residues 1-1053)
UniProt Q9UJQ4, sequence (whole entry, looked up): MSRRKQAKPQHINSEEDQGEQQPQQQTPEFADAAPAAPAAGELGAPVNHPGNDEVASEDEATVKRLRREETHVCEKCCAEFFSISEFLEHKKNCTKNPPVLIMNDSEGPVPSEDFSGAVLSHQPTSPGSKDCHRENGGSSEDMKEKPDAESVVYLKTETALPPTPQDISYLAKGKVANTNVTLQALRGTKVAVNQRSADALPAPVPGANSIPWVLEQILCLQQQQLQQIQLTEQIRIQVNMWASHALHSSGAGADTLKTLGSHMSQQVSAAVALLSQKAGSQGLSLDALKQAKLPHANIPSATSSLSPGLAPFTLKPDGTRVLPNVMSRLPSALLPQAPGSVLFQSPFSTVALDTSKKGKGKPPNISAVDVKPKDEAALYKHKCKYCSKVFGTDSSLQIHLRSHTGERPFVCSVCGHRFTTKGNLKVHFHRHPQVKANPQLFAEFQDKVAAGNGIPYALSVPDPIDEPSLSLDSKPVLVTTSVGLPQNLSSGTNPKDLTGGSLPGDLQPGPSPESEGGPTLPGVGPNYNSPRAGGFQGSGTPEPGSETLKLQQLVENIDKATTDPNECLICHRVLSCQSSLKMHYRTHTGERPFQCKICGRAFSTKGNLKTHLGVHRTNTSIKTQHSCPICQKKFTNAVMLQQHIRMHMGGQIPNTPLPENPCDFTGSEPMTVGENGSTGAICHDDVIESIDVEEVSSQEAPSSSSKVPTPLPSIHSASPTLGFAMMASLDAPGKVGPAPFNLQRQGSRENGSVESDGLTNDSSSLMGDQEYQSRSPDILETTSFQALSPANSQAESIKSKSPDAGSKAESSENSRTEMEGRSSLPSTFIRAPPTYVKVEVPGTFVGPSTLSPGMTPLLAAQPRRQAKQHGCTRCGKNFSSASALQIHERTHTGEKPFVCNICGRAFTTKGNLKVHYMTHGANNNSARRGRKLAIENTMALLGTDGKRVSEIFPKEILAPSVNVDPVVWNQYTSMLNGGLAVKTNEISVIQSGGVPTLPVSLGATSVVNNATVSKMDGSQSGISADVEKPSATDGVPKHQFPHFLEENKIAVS
Setting: 8-mer, flanks averaged, mean of replicates
Oligonucleotide | E-score
AGTCGTCC | -0.123
ACTCGTGG | -0.0758
AGAACTGG | -0.152
AACATCCG | -0.0205
TGTCACAA | 0.221
CATTAGGC | -0.0768
TGCACTAA | 0.141
AAGGCCCC | -0.325
CGCTGTTA | -0.0208
GGTTATAA | 0.295
GAATTACA | 0.198
GGGCAGAC | -0.295
CTTCCGCA | -0.101
AAGAGACG | -0.0255
TAACTTCA | 0.232
TATTCAGA | 0.0928
CTCGTTAC | -0.00265
CAGAGACA | -0.123
GAAGTTCC | -0.303
AACTCCTC | 0.0379
ACCTGGTG | -0.127
CACACCAA | 0.0475
AGCACCTA | -0.0916
CTGATGGC | -0.0691
AGTACGTA | 0.169

Repeated from above (study 2):
Substitution | normalised enrichment score
KELRQKLNFAYCE [S10A] | 0.211
KELRQKLNFSACE [Y11A] | -0.0485
KELRQKANFSYCE [L7A] | -0.0647
KELAQKLNFSYCE [R4A] | -0.112
KELRQKLAFSYCE [N8A] | 0.338
AELRQKLNFSYCE [K1A] | -0.157
KELRQKLNFSYAE [C12A] | -0.292
